Results pooled from the literature.
Values joined by “and” are separate records of one study, mostly repeats; a detail may differ. ± gives the spread as reported.

| Compound | test | test system | setting | how to read | quantity | value |
| --- | --- | --- | --- | --- | --- | --- |
| O=C(O)CCCOc1ccc(F)cc1-c1cc(-c2ccccc2C(F)(F)F)n(-c2ccccc2)n1 |  | female Crl:CD(SD) rats, liver | intravenous, 25 µg/kg, 1 d |  | organ weight | 5.89 ± 0.5 g |
| Cn1cncc1-c1c(F)cncc1NC(=O)c1c(N)nn2cc(F)cnc12 |  | human patients | oral, 220 mg once daily, 21 days |  | dose-limiting toxicity platelet decrease | 0% |
| O=c1cc(-c2ccc(O)c(O)c2)oc2cc(O)cc(O)c12 |  | male Sprague-Dawley rat, lean | oral, 100 mg/kg of neohesperidin, 12 to 24 h |  | faecal excreted amount | 619 ± 513 ng |
| CN[C@@H](C)C(=O)N[C@H]1CN(S(=O)(=O)c2cccc(S(=O)(=O)N3CC[C@H]4CC[C@@H](C(=O)NC(c5ccccc5)c5ccccc5)N4C(=O)[C@@H](NC(=O)[C@H](C)NC)C3)c2)CC[C@H]2CC[C@@H](C(=O)NC(c3ccccc3)c3ccccc3)N2C1=O |  | patients with advanced solid tumours | 45 mg, phase I monotherapy |  | treatment-related pruritus incidence | 0% |
| COc1cc2c(Oc3ccc4[nH]c(C)cc4c3F)ccnc2cc1OCC1(N)CC1 |  | paediatric recurrent refractory sarcoma | 10 mg |  | grade 1 or 2 Anorexia | 0% |
| C=CC(=O)Nc1cc(Nc2ncc(C(=O)OC(C)C)c(-c3cn(C)c4ccccc34)n2)c(OC)cc1N(C)CCN(C)C |  | pooled safety population | 160 mg once daily, three events |  | fatal ILD/pneumonitis | 1.2% |
| C[C@@H]1OC(=O)NN=C1c1ccc(-c2ccc(F)cc2)c(C(F)(F)F)c1 | phase I trial, measured: Ascites all grades | human patients | 5 mg loading then 0.25 mg daily |  | patients with adverse event | 0% |
| CC(C)N(CCc1c[nH]c2cccc(OC(=O)CCCC(=O)O)c12)C(C)C.Cl |  | male beagle dog, plasma | subcutaneous, 1 mg/kg |  | Cmax | 344 ng/mL |
| CC(C)Nc1ccnc(Nc2cccc(-c3cccnc3)c2)n1 | measured: ALT | mouse, blood | intraperitoneal, 3 mg/kg |  | blood chemistry | 101 U/L |
| COc1cccc(Oc2ccccc2NC(=O)CNC(=O)c2cccc3ccccc23)c1 |  | esterase-deficient SCID mice, male, blood | oral, 15 mg/kg/day, 14 days, toxicity study |  | mean corpuscular hemoglobin concentration | 31.1 g/dL and 31.7 g/dL and 32.3 g/dL |
| COc1ccc2nc3cc(Cl)ccc3c(Nc3cc(CN4CCCC4)c(O)c(CN4CCCC4)c3)c2n1 |  | mouse, blood | oral, 57 mg/kg, tolerability, mean |  | eosinophils | 4.89% |
| CC(=O)c1c(C)c2cnc(Nc3ccc(C4CCN(CCS(C)(=O)=O)CC4)cn3)nc2n(C2CCCC2)c1=O |  | human, plasma | oral, 25 mg once daily, day 1, single dose |  | t1/2 | 366 min |
| CCN1[C@@H](C(=O)NC23CCC(C(=O)O)(CC2)CC3)[C@H](c2cccc(Cl)c2F)[C@]2(C(=O)Nc3cc(Cl)ccc32)C12CCCCC2 |  | patients with advanced solid tumours | oral, 100 mg |  | Myalgia incidence | 9.1% |
| CC(C)C[C@H](NC(=O)[C@H](CCCCN)NC(=O)OCC1c2ccccc2-c2ccccc21)C(=O)N[C@H](C(=O)N[C@@H](Cc1ccccc1)C(=O)N[C@@H](Cc1ccccc1)C(=O)N[C@@H](CCCCN)C(=O)NCC(=O)N[C@@H](Cc1ccccc1)C(=O)N[C@@H](C)C(=O)N[C@@H](Cc1c[nH]c2ccccc12)C(=O)N[C@@H](CC(N)=O)C(=O)N[C@H](C(=O)N[C@H]1CSSC[C@@H](C(=O)N[C@@H](Cc2c[nH]cn2)C(=O)N[C@@H](CCCNC(=N)N)C(=O)N[C@@H](CCCNC(=N)N)C(=O)N[C@@H](C)C(=O)N[C@@H](CC(N)=O)C(N)=O)NC(=O)[C@H](C(C)C)NC(=O)[C@H](CCCNC(=N)N)NC(=O)[C@H](C(C)C)NC(=O)CNC(=O)[C@H](CC(N)=O)NC(=O)[C@H](CCCNC(=N)N)NC(=O)[C@H](Cc2ccc(O)cc2)NC(=O)[C@H](C(C)C)NC1=O)C(C)C)C(C)C | HPLC | mouse kidney homogenate | 2560 µM, 2.00 h, 37 °C, 50 mg/mL tissue |  | remaining peptide | 86% and 90.5% |
| O=C(Nc1ccccc1)C1CCN(C(=O)Oc2cccnc2)CC1 | adverse event reporting | healthy women | oral, 100 mg, 9 days |  | subjects with blurred vision | 15.4% |
| C=CC(=O)Nc1cc(Nc2nccc(Nc3cc(Cl)c(F)cc3C(C)(C)O)n2)c(OC)cc1N1CC[C@@H](N(C)C)C1 |  | human patients | oral, 200 mg, treatment-emergent adverse events |  | patients with nausea | 18.8% |
| O=c1nc(NO)ccn1[C@@H]1O[C@H](CO)[C@@H](O)[C@H]1O |  | rat maternal placenta dialysate | 25 ng/mL, 6 h, room temperature, low concentration, added: molnupiravir 5 ng/mL |  | bench-top stability | 106 ± 3.61% |
| CC(C)n1c(C2CCNCC2)nc2c([N+](=O)[O-])c(Br)c(Br)cc21 | measured: Asthenia | AML patients | dose not given, all doses |  | related grade ≥3 adverse events | 3% |
| [O-][S+]1CCc2nc(N3CCC(c4ncc(Cl)cn4)CC3)nc(NC3(CO)CCC3)c21 (stereo not shown) | measured: nervous system disorders | healthy male humans | 12 mg twice daily |  | adverse event incidence | 37.5% |

| Compound | test | test system | setting | how to read | quantity | value |
| --- | --- | --- | --- | --- | --- | --- |
| COc1ccc(-c2c(-c3ccc(C#N)c(F)c3)nc(N3CCC(N)CC3)n(C)c2=O)cc1F | measured: Vomiting | neuroendocrine neoplasm patients | oral, 60 mg, any grade, dose expansion |  | treatment-related adverse event incidence | 6% |
| CO[C@H]1C[C@@H]2CC[C@@H](C)[C@@](O)(O2)C(=O)C(=O)N2CCCC[C@H]2C(=O)O[C@H]([C@H](C)C[C@@H]2CC[C@@H](OC(=O)NCCOCCOCCOCCOCCOCCOCCOCCOCCC(=O)N3CCc4cc(Cn5nc(-c6ccc7oc(N)nc7c6)c6c(N)ncnc65)ccc4C3)[C@H](OC)C2)C[C@@H](O)[C@H](C)/C=C(\C)[C@@H](O)[C@@H](OC)C(=O)[C@H](C)C[C@H](C)/C=C/C=C/C=C/1C | phase 1 dose escalation, measured: mucositis | advanced solid tumour patients | intravenous, 16 mg weekly, grade ≥3 |  | dose-reducing adverse events | 0% |
| C=CC(=O)N1CC[C@H](n2nc(C#Cc3cc(OC)cc(OC)c3)c3c(N)ncnc32)C1 |  | human patients | oral, dose not given, QD regimen, adverse drug reaction, added: sevelamer hydrochloride |  | hyponatremia incidence, grade ≥3 | 4.5% |
| CC1(C)[C@H](C(=O)OCc2cccc(Oc3ccccc3)c2)[C@@H]1C=C(Cl)Cl | measured: CYP2C19 | human, age 5 years, recombinant human CYP2C19 | 0.1 µM |  | enzyme contribution to clearance | 3.57% |
| COc1ncccc1-c1cnn2ccc(N3CCN(C(=O)OC(C)C)CC3)nc12 |  | mouse, SNL model, plasma | oral, 60 mg/kg, 120 min |  | free drug concentration | 280 nM |
| CC(C)[C@@H](CN1CC[C@@](C)(c2cccc(O)c2)[C@@H](C)C1)NC(=O)[C@@]1(C)Cc2ccc(O)cc2CN1 |  | rat | intraperitoneal, 5 mg/kg, brain over plasma AUClast |  | Kp | 1.71 |
| CCN1CC2(CCN(CCc3cc(F)ccc3F)CC2)O[C@H](C)C1=O |  | ferret, plasma | intraperitoneal, 1 mg/kg |  | tmax | 12 ± 6 min |
| C[C@]1(CO)Cc2ncn(-c3ccc(C#N)c(Cl)c3)c2C(=O)O1 |  | human, Chinese | 3 mg single dose |  | subjects with drug-related headache | 16.7% |
| CCc1ccc(CC/C=C/c2ccc3c(c2)C(=O)CC3)cc1 |  | Sprague-Dawley rat, male | oral, 30 mg/kg/day, 14 days |  | Hemoglobin | 149 g/L |
| CC[C@H](C)[C@H](NC(=O)[C@H](CC(C)C)NC(=O)[C@H](Cc1c[nH]c2ccccc12)NC(=O)[C@H](CCC(N)=O)NC(=O)[C@@H](NC(=O)[C@H](Cc1ccccc1)NC(=O)[C@H](C)NC(=O)[C@H](CCCCNC(=O)COCCOCCNC(=O)COCCOCCNC(=O)CC[C@H](NC(=O)CCCCCCCCCCCCCCCCCCC(=O)O)C(=O)O)NC(=O)[C@H](CCC(N)=O)NC(=O)[C@H](C)NC(=O)[C@@H](NC(=O)[C@H](CCCCN)NC(=O)[C@H](CC(=O)O)NC(=O)[C@H](CC(C)C)NC(=O)C(C)(C)NC(=O)[C@@H](NC(=O)[C@H](CO)NC(=O)[C@H](Cc1ccc(O)cc1)NC(=O)[C@H](CC(=O)O)NC(=O)[C@H](CO)NC(=O)[C@@H](NC(=O)[C@H](Cc1ccccc1)NC(=O)[C@@H](NC(=O)CNC(=O)[C@H](CCC(=O)O)NC(=O)C(C)(C)NC(=O)[C@@H](N)Cc1ccc(O)cc1)[C@@H](C)O)[C@@H](C)O)[C@@H](C)CC)[C@@H](C)CC)C(C)C)C(=O)N[C@@H](C)C(=O)NCC(=O)NCC(=O)N1CCC[C@H]1C(=O)N[C@@H](CO)C(=O)N[C@@H](CO)C(=O)NCC(=O)N[C@@H](C)C(=O)N1CCC[C@H]1C(=O)N1CCC[C@H]1C(=O)N1CCC[C@H]1C(=O)N[C@@H](CO)C(N)=O |  | human, plasma | subcutaneous, 15 mg group, week 8, geometric mean | baseline: peak over trough concentration | peak-to-trough ratio | 1.94 |
| CN1CC[C@@H](c2c(O)cc(O)c3c(=O)cc(-c4ccc(C(F)(F)F)cc4Cl)oc23)[C@@H]1CO | measured: Diarrhea | relapsed or refractory haematological malignancies | oral, dose not given, grade ≥3 |  | adverse event incidence | 2.5% |
| CSCC[C@H](NC(=O)[C@H](CC(C)C)NC(=O)[C@H](CCCCN)NC(=O)[C@H](Cc1c[nH]c2ccccc12)NC(=O)[C@H](CC(N)=O)NC(=O)[C@H](CCCCN)NC(=O)CNC(=O)[C@H](CC(C)C)NC(=O)[C@H](CC(C)C)NC(=O)[C@H](CCCCN)NC(=O)[C@@H](N)CCCCN)C(=O)NCCCC[C@H](NC(=O)[C@H](CCSC)NC(=O)[C@H](CC(C)C)NC(=O)[C@H](CCCCN)NC(=O)[C@H](Cc1c[nH]c2ccccc12)NC(=O)[C@H](CC(N)=O)NC(=O)[C@H](CCCCN)NC(=O)CNC(=O)[C@H](CC(C)C)NC(=O)[C@H](CC(C)C)NC(=O)[C@H](CCCCN)NC(=O)[C@@H](N)CCCCN)C(=O)NCCCC[C@H](NC(=O)[C@H](CCCCNC(=O)[C@H](CCSC)NC(=O)[C@H](CC(C)C)NC(=O)[C@H](CCCCN)NC(=O)[C@H](Cc1c[nH]c2ccccc12)NC(=O)[C@H](CC(N)=O)NC(=O)[C@H](CCCCN)NC(=O)CNC(=O)[C@H](CC(C)C)NC(=O)[C@H](CC(C)C)NC(=O)[C@H](CCCCN)NC(=O)[C@@H](N)CCCCN)NC(=O)[C@H](CCSC)NC(=O)[C@H](CC(C)C)NC(=O)[C@H](CCCCN)NC(=O)[C@H](Cc1c[nH]c2ccccc12)NC(=O)[C@H](CC(N)=O)NC(=O)[C@H](CCCCN)NC(=O)CNC(=O)[C@H](CC(C)C)NC(=O)[C@H](CC(C)C)NC(=O)[C@H](CCCCN)NC(=O)[C@@H](N)CCCCN)C(=O)NCCC(=O)O | mass spectrometry | human serum |  |  | methionine oxidation | 5 to 10% |
| O=C1Nc2cc3[nH]nc(-c4ccncc4)c3cc2CN1Cc1ccccc1 | CTCAE v4.03 | advanced solid tumour patients | intravenous, 7.2 mg/kg, schedules 1/2 |  | patients with dizziness | 20% |
| O=S(=O)(Nc1ccccc1)c1ccc(NC(=S)Nc2ccccc2)cc1 | measured: CREA | female mouse, blood | oral, 80 mg/kg daily, 14 days |  | blood chemistry level | 0.18 mg/dL |
| COc1ccc(C[C@@H]2NC(=O)[C@H]([C@@H](C)O)NC(=O)[C@@H]3[C@@H]4CCN3C(=O)[C@@H]3Cc5cn(c6ccc(F)cc56)CCCCCCN(Cc5ccc(cc5)CCNC(=O)[C@]5(C)CCCN5C2=O)C(=O)CCC(=O)N[C@@H](C)C(=O)N[C@H](CNC(=O)CCCCC[N+](C)(C)C)C(=O)N[C@@H](Cc2cccc(c2)CNC(=O)CO4)C(=O)N3)cc1 | measured: Conjunctivitis | humans | concentration not given, Study-003 |  | participants with adverse event | 0% |
| CCC[C@@](N)(CO)CCc1ccc(OCCCCCC(C)C)cc1 |  | dog | oral, 15 mg/kg |  | Cmax | 686 nM |
| Cc1noc(C)c1Cn1cc(N2C(=O)CN(Cc3cccc(O)c3)C2=O)cn1 |  | CD-1 mouse, male, bone marrow | 500 mg/kg/day, 24 h |  | micronucleated PCE | 0.3 per 2000 PCE |
| COc1ccc2c(c[n+](C)c3c4cc5c(cc4ccc23)OCO5)c1OC | LC-MS/MS | rat, plasma | dose not given |  | CL/F | 2.25 mL/min/kg |

For quick reference, copied from above:
| Compound | test | test system | setting | how to read | quantity | value |
| --- | --- | --- | --- | --- | --- | --- |
| O=C(O)CCCOc1ccc(F)cc1-c1cc(-c2ccccc2C(F)(F)F)n(-c2ccccc2)n1 |  | female Crl:CD(SD) rats, liver | intravenous, 25 µg/kg, 1 d |  | organ weight | 5.89 ± 0.5 g |
| CO[C@H]1C[C@@H]2CC[C@@H](C)[C@@](O)(O2)C(=O)C(=O)N2CCCC[C@H]2C(=O)O[C@H]([C@H](C)C[C@@H]2CC[C@@H](OC(=O)NCCOCCOCCOCCOCCOCCOCCOCCOCCC(=O)N3CCc4cc(Cn5nc(-c6ccc7oc(N)nc7c6)c6c(N)ncnc65)ccc4C3)[C@H](OC)C2)C[C@@H](O)[C@H](C)/C=C(\C)[C@@H](O)[C@@H](OC)C(=O)[C@H](C)C[C@H](C)/C=C/C=C/C=C/1C | phase 1 dose escalation, measured: mucositis | advanced solid tumour patients | intravenous, 16 mg weekly, grade ≥3 |  | dose-reducing adverse events | 0% |
| O=c1nc(NO)ccn1[C@@H]1O[C@H](CO)[C@@H](O)[C@H]1O |  | rat maternal placenta dialysate | 25 ng/mL, 6 h, room temperature, low concentration, added: molnupiravir 5 ng/mL |  | bench-top stability | 106 ± 3.61% |
